Measurements pooled from the literature.
Compare with care: the assays were run in different laboratories. “And” joins repeats or separate records; there may be more than shown. Numbers after ± are the reported error. In brackets after ≈: the same amount, converted by molar mass.

CSCC[C@@H]1NC(=O)[C@H](CC(=O)O)NC(=O)CNC(=O)[C@H](CCCNC(=N)N)NC(=O)[C@H](C)NC(=O)[C@H](CCC(=O)O)NC(=O)[C@H](CCCNC(=N)N)NC(=O)[C@@H]2CSSC[C@@H]3NC(=O)[C@H](CO)NC(=O)[C@H]([C@@H](C)O)NC(=O)[C@@H]4CCCN4C(=O)[C@H](C)NC(=O)[C@H](Cc4c[nH]c5ccccc45)NC(=O)[C@H](CC(=O)O)NC(=O)CNC(=O)[C@H](CCCNC(=N)N)NC(=O)CNC(=O)[C@H](CCC(N)=O)NC(=O)[C@@H]4CCCN4C(=O)[C@@H](NC(=O)CNC(=O)C(C)F)CSSC[C@H](NC(=O)CNC(=O)[C@H](C)NC(=O)[C@H](CC(C)C)NC(=O)[C@H](CSSC[C@@H](C(=O)NCC(N)=O)NC(=O)[C@H]([C@@H](C)O)NC(=O)[C@H](CCCNC(=N)N)NC(=O)[C@@H]4CCCN4C1=O)NC(=O)[C@H](CC(=O)O)NC(=O)[C@H](CO)NC(=O)[C@H](CC(=O)O)NC(=O)[C@H](CCC(N)=O)NC(=O)[C@H](CO)NC3=O)C(=O)N[C@@H](C(C)C)C(=O)N2 (stereo partly drawn) [fluorine-18 labelled]  tissue uptake (nude mice U-87 MG xenograft, liver; intravenous, 2.5 h): 0.29 ± 0.1 %ID/g
Cl.Cl.NCCCn1c2c(c3ccc(N)cc3c1=O)C(=O)c1ccccc1-2  tissue concentration (Sprague-Dawley rat, female, liver; oral, 40 mg/kg/day for 3 days, 3 h after last dose, mean): 4.28 µg/g
CC1(C)S[C@@H]2[C@H](NC(=O)[C@H](C(=O)O)c3ccsc3)C(=O)N2[C@H]1C(=O)O  relative error (rat plasma; 8000 ng/mL, three freeze-thaw cycles; baseline: nominal concentration): 1%
N#Cc1ccc(N2N=C3c4ccc(C(=O)N5CCC(O)CC5)nc4CC[C@@H]3[C@@H]2C2CCCC2)cc1Cl  AUC(0-inf) increase (human; dose not given, with: itraconazole; baseline: without itraconazole): 104%
COc1ccc(C[C@@H]2NC(=O)[C@H]([C@@H](C)O)NC(=O)[C@@H]3[C@@H]4CCN3C(=O)[C@@H]3Cc5cn(c6ccc(F)cc56)CCCCCCN(Cc5ccc(cc5)CCNC(=O)[C@]5(C)CCCN5C2=O)C(=O)CCC(=O)N[C@@H](C)C(=O)N[C@H](CNC(=O)CCCCC[N+](C)(C)C)C(=O)N[C@@H](Cc2cccc(c2)CNC(=O)CO4)C(=O)N3)cc1  Tmax (fasted healthy humans, plasma; oral, 100 mg single dose, with 1800 mg Labrasol, median): 1.5 h
Clc1ccc(Cl)c(-c2c(Cl)ccc(Cl)c2Cl)c1Cl  enantiomeric fraction (wild-type mice, male, whole blood; oral, 6.63 mg/kg single, 48 h, with: racemic dose): 0.75 ± 0.02
O=c1[nH]c(Cc2ccccn2)nc2c1cnn2C1CCOCC1  AUC(0-inf) (male human, plasma; oral, 2 mg, single dose): 0.0209 µM·h
CCCCCOc1ccc(-c2cc(-c3ccc(C(=O)N[C@H]4C[C@@H](O)[C@@H](O)NC(=O)[C@@H]5[C@@H](O)[C@@H](C)CN5C(=O)[C@H]([C@H](O)CC(N)=O)NC(=O)[C@H]([C@H](O)[C@@H](O)c5ccc(O)c(OS(=O)(=O)O)c5)NC(=O)[C@@H]5C[C@@H](O)CN5C(=O)[C@H]([C@@H](C)O)NC4=O)cc3)no2)cc1  AUCtau (human children aged 6-11 years, plasma; intravenous, 4.5 mg/kg once daily, day 7, geometric mean): 276 µg·h/mL
O=C(CC(=O)c1ccccc1)c1ccccc1  Tmax (Sprague-Dawley rat, male, plasma; oral, 50 mg/kg, regular emulsion): 2 h
CN[C@@](C)(C[18F])C(=O)O  tissue uptake (SCID mouse DU-145 xenograft, spleen; 30 min, post injection): 15 ± 5.4 %ID/g
CC[C@H](C)[C@H](NC(=O)[C@H](Cc1ccccc1)NC(=O)[C@H](CC(=O)O)NC(=O)[C@H](CCCNC(=N)N)NC(=O)[C@H](Cc1ccccc1)NC(=O)[C@H](Cc1ccccc1)NC(=O)[C@H](CCCCN)NC(=O)[C@H](CO)NC(=O)[C@H](CC(C)C)NC(=O)[C@H](CCCNC(=N)N)NC(=O)[C@H](CCSC)NC(=O)[C@@H](N)CCC(=O)O)C(=O)N[C@@H](CC(C)C)C(=O)N[C@@H](CCC(N)=O)C(=O)N[C@@H](CCCNC(=N)N)C(=O)N[C@@H](CCCCN)C(=O)N[C@@H](CCCCN)C(=O)O  time to full clearance (IVIS fluorescence imaging; CD-1 mice; intravenous, 50 µg/mouse, Cy7.5-labelled peptide): 36 h
CCOCN(C(=O)CCl)c1c(C)cccc1CC  remaining amount (LC-MS/MS; herbicide solution; 2 h, 23 °C, with: 254 nm UV exposure): 11.8 ± 0.01%
CC(=O)N[C@H](CCCCNC(=O)C(C)F)C(=O)N[C@@H](CS)C(=O)N[C@@H](CS)C(=O)N[C@@H](CCC(=O)O)C(=O)N[C@@H](Cc1c[nH]cn1)C(=O)N[C@H](Cc1ccccc1)C(=O)N[C@@H](CCCNC(=N)N)C(=O)N[C@@H](Cc1c[nH]c2ccccc12)C(=O)N[C@@H](CS)C(=O)N[C@@H](CCCNC(=N)N)C(=O)N1CCC[C@H]1C(=O)N[C@H](C(N)=O)C(C)C (stereo partly drawn) [fluorine-18 labelled]  tissue uptake (C57BL/6 mice, male, B16-F10 tumour, intestine; intravenous, 2 h): 1.14 ± 0.8 %ID/g
Cc1cc(C(C#N)c2ccc(Cl)cc2)c(Cl)cc1NC(=O)c1cc(I)cc(I)c1O (stereo not drawn)  MRT (HPLC, non-compartmental; Corriedale lambs, parasitized, plasma; subcutaneous, 5 mg/kg, with: moxidectin 0.2 mg/kg subcutaneous): 744 ± 166 h
c1ccc(-c2nc(N3CCC(c4ccccn4)C3)c3ccccc3n2)nc1 (stereo not drawn)  maximum tolerated dose (Balb/c mouse, female; oral, up to 5 days, twice daily): ≤ 100 mg/kg/dose
CCCCCCCCCCCCCCCCCC[N+](C)(C)CCCCCCCCCCCCCCCCCC  unbound fraction in blood (ultrafiltration; human serum): 0.04
Nc1nc(N)nc(N)n1  serum concentration (LC-MS/MS; non-pregnant female rat, serum; oral, 1000 mg/kg/day, 10 days): 767 µg/mL and 268 µg/mL and 302 µg/mL and 170 µg/mL and 73.7 µg/mL
NC(=O)c1nc(F)c[nH]c1=O  solubility (UV-Vis spectrophotometry; supercritical CO2; 120 min, 338 K, 24 MPa, 751.17 kg/m^3): 1500 µg/mL (≈ 9.57 mM)
CC[C@H](C)[C@H](NC(=O)[C@@H](N)CCCNC(=N)N)C(=O)N[C@H](C(=O)N1CCC[C@H]1C(=O)N[C@@H](C)C(N)=O)C(C)C  Cmax (human, plasma; intravenous, 5 mg/kg, single dose, healthy volunteers): 13.6 µg/mL
CC[C@H](NC(=O)[C@H](CC(C)C)NC(=O)[C@H](Cc1cccc2ccccc12)NC(=O)[C@H](CNC(=O)c1ccc(F)nc1)NC(=O)[C@H](CO)NC(=O)C1CCNCC1)C(=O)N1CCC[C@H]1C(=O)N[C@H](C(N)=O)[C@@H](C)O  half-life (chemical stability; male human, serum; 1 mM, pH 7.4): > 24 h
O=c1nc(NO)ccn1[C@@H]1O[C@H](CO)[C@@H](O)[C@H]1O  AUC (microdialysis; pregnant rat, blood, fetus, placenta, amniotic fluid; iv, 100 mg/kg of molnupiravir, with: NBMPR 10 mg/kg; baseline: molnupiravir alone): no effect
O[C@H]1CCCN[C@@H]1CCCn1cnc2c(Cl)c(Cl)ccc21  Vd/F (human, plasma; oral, 600 mg, single dose, healthy volunteers): 4460 L
[123I]c1cncc(OC[C@@H]2CCN2)c1  tissue/plasma ratio (SPECT; human, thalamus; intravenous bolus, 9.1 mCi; baseline: plasma): 29.2
c1cc2ccc3cccc4ccc(c1)c2c34  tissue concentration (HPLC-fluorescence; Wistar rat, male, ileum; oral, 4 mg/kg, 24 h): 0.067 ± 0.0179 µg/g
C[C@H]1N=C(c2ccccc2F)c2cc(Br)ccc2-n2cnc(C(=O)O)c21  concentration (Swiss Webster mice, lung; oral, 25 mg/kg, 60 min, PEG400 2.5%, HPMC 98%): 287 nM
CCCCCOc1ccc(-c2ccc(-c3ccc(C(=O)N[C@H]4C[C@@H](O)[C@@H](O)NC(=O)[C@@H]5[C@@H](O)[C@@H](C)CN5C(=O)[C@H]([C@@H](C)O)NC(=O)[C@H]([C@H](O)[C@@H](O)c5ccc(O)cc5)NC(=O)[C@@H]5C[C@@H](O)CN5C(=O)[C@H]([C@@H](C)O)NC4=O)cc3)cc2)cc1  clearance (population PK model; human patients; intravenous, typical patient of sample D kg): 19.3 mL/min
NC[C@H]1O[C@@H](O[C@@H]([C@H](NCCCC(=O)NCc2ccc(N3CCC(Oc4ccc(OC(F)(F)F)cc4)CC3)cc2)C(N)=O)[C@H]2O[C@@H](n3ccc(=O)[nH]c3=O)C(O)C2O)[C@H](O)[C@@H]1O (stereo partly drawn)  efflux ratio (Caco-2): 5.5
COc1ccc([C@@H]2CC(=O)c3c(O)cc(O[C@@H]4O[C@H](CO[C@@H]5O[C@@H](C)[C@H](O)[C@@H](O)[C@H]5O)[C@@H](O)[C@H](O)[C@H]4O)cc3O2)cc1O  solubility (shake flask; water with ethanol or surfactants (Tween 80, TPGS)): no effect
CCc1cccc(C)c1N(C(=O)CCl)C(C)COC (stereo not drawn)  remaining amount (LC-MS/MS; herbicide solution; 2 h, 40 °C, with: 365 nm UV exposure): 46.7 ± 26.1%
COc1ccc(/C=C\c2cc(OC)c(OC)c(OC)c2)cc1O  LC50 (mortality; zebrafish embryos, water with 0.1% DMSO; bath, 96 h): 5 nM

Excerpt of the above:
O=c1nc(NO)ccn1[C@@H]1O[C@H](CO)[C@@H](O)[C@H]1O  AUC (microdialysis; pregnant rat, blood, fetus, placenta, amniotic fluid; iv, 100 mg/kg of molnupiravir, with: NBMPR 10 mg/kg; baseline: molnupiravir alone): no effect
CCc1cccc(C)c1N(C(=O)CCl)C(C)COC (stereo not drawn)  remaining amount (LC-MS/MS; herbicide solution; 2 h, 40 °C, with: 365 nm UV exposure): 46.7 ± 26.1%
COc1ccc(/C=C\c2cc(OC)c(OC)c(OC)c2)cc1O  LC50 (mortality; zebrafish embryos, water with 0.1% DMSO; bath, 96 h): 5 nM
O[C@H]1CCCN[C@@H]1CCCn1cnc2c(Cl)c(Cl)ccc21  Vd/F (human, plasma; oral, 600 mg, single dose, healthy volunteers): 4460 L
